Results gathered from unrelated publications.
Protocols differ between the studies behind these lines. Numbers after ± are the reported error.

`CN(CCC(Oc1cccc2ccccc12)c1cccs1)N=O` (centres unmarked) — result for mutagenicity: “positive” (Salmonella typhimurium, Escherichia coli; preincubation Ames test; concentration not given, with and without S9).
For `CC1(C)C=Cc2c(ccc3c2[N+]([O-])=C2C(C)(C)[C@@H]4C[C@]56CCCN5C(=O)[C@]4(NC6=O)[C@H]4N5C(=O)[C@@]67CCCN6C(=O)[C@@]56[C@H](c5c([nH]c8c9c(ccc58)OC(C)(C)C=C9)C(C)(C)[C@@H]6C7)[C@]234)O1`, the viability was over 200 µM (Candida albicans; cell growth, XTT; DAY185; no inhibition up to value).
`CC[C@H](C)[C@H](NC(=O)[C@H](Cc1c[nH]c2ccccc12)NC(=O)[C@H](CCC(=O)O)NC(=O)[C@H](CCCCN)NC(=O)[C@@H](NC(=O)[C@H](CCCCN)NC(=O)[C@@H](N)CC(N)=O)C(C)C)C(=O)N[C@@H](CCCCN)C(=O)N[C@@H](Cc1ccc(O)cc1)C(=O)N[C@@H](CC(C)C)C(=O)N[C@@H](CCCCN)C(=O)N[C@@H](CO)C(=O)N[C@@H](CC(C)C)C(=O)N[C@@H](Cc1ccccc1)C(=O)N[C@@H](CO)C(=O)N[C@H]1CCOC1=O` has a remaining peptide of 0% (Lacticaseibacillus casei; ATCC 393, resting cell suspension; 200 µg/mL, 1 h, pH 7.0, 37 °C).
`O=[N+]([O-])c1ccc(Oc2ccc(Cl)cc2Cl)cc1` — result for “concentration in mucosal solution”: 50.4 ± 5.4 µg/mL (Cyprinus carpio; everted gut sac; intestine; concentration not given, 24 h, 23 °C).
`C[C@H]1[C@@H](O)O[C@@H]2O[C@@]3(C)CC[C@H]4[C@H](C)CC[C@@H]1[C@@]24OO3` has a selectivity ratio of 921 (Plasmodium falciparum; Vero, K1 chloroquine-resistant; relative to: CC50 Vero over IC50 parasite).
`O=C(NCCN1CCCC1)c1cc(-c2ccc(CN3CCOCC3)cc2)nc2ccc(F)cc12` has an AUC(0-t) of 2680 ng·h/mL (Plasmodium falciparum; human, whole blood; oral, 150 mg, malaria volunteer infection study).
`CCN(CC)CCCC(C)Nc1ccnc2cc(Cl)ccc12` (centres unmarked) gave a selectivity index of 1810 (Plasmodium falciparum; Vero, K1 chloroquine-resistant; relative to: Vero CC50 over parasite IC50).
`O=NN(c1ccccc1CC(=O)O)c1c(Cl)cccc1Cl` — result for mutagenicity: “negative” (Salmonella typhimurium, Escherichia coli; preincubation Ames test; concentration not given, with and without S9).
With `NC(=O)N1c2ccccc2C=Cc2ccccc21` the plasma concentration was 4.28 µg/mL (Danio rerio; zebrafish, male; waterborne exposure, 1000 µg/L nominal, 7 d).
`CCN(CC)N=O`: mutagenicity “positive” (Salmonella typhimurium, Escherichia coli; preincubation Ames test; concentration not given, with and without S9).
For `Nc1ncnc2c([C@@H]3N[C@H](CO)[C@@H](O)[C@H]3O)c[nH]c12`, the SI90 was 10 (Zika virus; RD, PRVABC-59; unit not given; relative to: CC50 over EC90).
Under “concentration in mucosal solution”, `COc1ccc(C(c2ccc(OC)cc2)C(Cl)(Cl)Cl)cc1` is recorded as 57.6 ± 4 µg/mL (Cyprinus carpio; everted gut sac; intestine; concentration not given, 24 h, 23 °C).
For `CCN(N=O)c1ccccc1`, mutagenicity read “positive” (Salmonella typhimurium, Escherichia coli; preincubation Ames test; concentration not given, with and without S9).
Under mutagenicity, `CC(C)C[C@H](NC(=O)[C@@H](NC(=O)CNC(=O)[C@H](CCC(=O)O)NC(=O)[C@@H](N)CCCCN)C(C)C)C(=O)N[C@@H](Cc1ccc(O)cc1)C(=O)N[C@H](C(=O)NCC(=O)N[C@@H](Cc1c[nH]cn1)C(=O)N[C@@H](Cc1c[nH]cn1)C(=O)N[C@H](C(=O)N[C@@H](CCCCN)C(=O)O)[C@@H](C)O)C(C)C` is recorded as “negative” (Salmonella typhimurium; Ames test; up to 150 µg/plate).

For quick reference, copied from above:
`CC[C@H](C)[C@H](NC(=O)[C@H](Cc1c[nH]c2ccccc12)NC(=O)[C@H](CCC(=O)O)NC(=O)[C@H](CCCCN)NC(=O)[C@@H](NC(=O)[C@H](CCCCN)NC(=O)[C@@H](N)CC(N)=O)C(C)C)C(=O)N[C@@H](CCCCN)C(=O)N[C@@H](Cc1ccc(O)cc1)C(=O)N[C@@H](CC(C)C)C(=O)N[C@@H](CCCCN)C(=O)N[C@@H](CO)C(=O)N[C@@H](CC(C)C)C(=O)N[C@@H](Cc1ccccc1)C(=O)N[C@@H](CO)C(=O)N[C@H]1CCOC1=O` has a remaining peptide of 0% (Lacticaseibacillus casei; ATCC 393, resting cell suspension; 200 µg/mL, 1 h, pH 7.0, 37 °C).
`O=[N+]([O-])c1ccc(Oc2ccc(Cl)cc2Cl)cc1` — result for “concentration in mucosal solution”: 50.4 ± 5.4 µg/mL (Cyprinus carpio; everted gut sac; intestine; concentration not given, 24 h, 23 °C).
